Measured values of several laboratories.
Several values in a cell are separate wells, animals, samples, runs or records. ± gives the spread as reported.

Structure (SMILES) | cell line | assay | system | setting | scale | quantity | result
Cc1cnc2ccc3c(c2n1)N1CCC(O)N=C1N3C (stereo not shown) | BALB/c 3T3 | – | – | 0.5 µM | relative to: solvent control | relative colony forming efficiency | 106 ± 3%
FC(F)(F)C1=C/C(=C/CCCCCCOCc2ccccc2)c2cc3c(cc21)OCO3 | MM1.S bortezomib-resistant | Western blot | – | 0.5 µM, 8 h | – | Nrf2 stabilization | no effect
CCCCN1C[C@H](O)[C@@H](O)[C@@H](O)[C@H]1CO | sample A patient fibroblasts | GlcCer level lowering, LC-MS/MS, item: GlcCer d18:1/16:0 | – | 216 h | – | IC50 | 15.1 µM
O=c1[nH]nc(OCCCc2ccc(Cl)cc2)c(NCc2cccnc2)c1Br | HEK-293T | RNA-seq GSEA, item: HALLMARK_MYC_TARGETS_V2 | – | concentration not given | direction not given | normalized enrichment score | -1.87
Clc1nc(NCc2ccco2)c2[nH]cnc2n1 | iPSC-derived cardiomyocytes, GLA mutant | RNA-seq | – | FDR below 0.05 | – | share of splicing events affected | 0.23%
Cn1cc(-c2ccc(-c3cncc(Cl)c3N3CCC4(CCNC4=O)CC3)cc2)cn1 | COLO 205 | gene expression, microarray, item: KLF10 mRNA | – | concentration not given, 2 h | relative to: untreated cells | log2 fold change | 2.12
O=c1ccn([C@@H]2O[C@H](CO)[C@@H](O)[C@H]2O)c(=O)[nH]1 | activated human T cells | – | human | 31.6 nM | – | T cell proliferation | 24.3% and 17% and 34.4% and 31.4% and 12.5%
COc1ncccc1CN[C@@H]1C[C@H]1c1ccccc1 (racemic) | THP-1 cells expressing NTR | MTS | – | 72 h | – | GI50 | > 50 µM
O=C(/C=C/C=C/C=C/C1CCCCC1)NC1=C[C@@](O)(/C=C/C=C/C=C/C(=O)NC2=C(O)CCC2=O)[C@@H]2O[C@@H]2C1=O | SW1990 | cell growth, CellTiter-Glo | – | 78 h | – | GI50 | 15.1 µM
Cc1ccc(CNC(=O)Cn2cc(CSc3nc4ccccc4[nH]3)nn2)cc1 | HEK293 | MTT | – | 31.3 ppm | – | cytotoxicity | 82.8%
COc1c(C)c(OC(=O)c2ccccc2)c(C)c(O)c1C(=O)/C=C/c1ccccc1 | SH-SY5Y | SRB | – | – | relative to: normal over SH-SY5Y IC50 | selectivity index | > 2.47
COc1cnc2cccc(N3CCc4c(cc(Cn5ccnc5C)cc4-c4cn(C)nc4C(F)(F)F)C3=O)c2c1 | HLF | cell growth, inhibitor | – | 120 h | – | EC50 | 6.14 µM
CSCC[C@H](NC(=O)[C@H](Cc1ccc(OS(=O)(=O)O)cc1)NC(=O)[C@@H](N)CC(=O)O)C(=O)NCC(=O)N[C@@H](Cc1c[nH]c2ccccc12)C(=O)N[C@@H](CCSC)C(=O)N[C@@H](CC(=O)O)C(=O)N[C@@H](Cc1ccccc1)C(N)=O | HEK293T control virus | agonist, GloSensor cAMP | – | 0.128 nM, no receptor expressed | higher = more cAMP | cAMP accumulation | 0.207 a.u.
CC(C)NCC(O)c1ccc(O)c(O)c1 (stereo not shown) | mouse ventricular cardiomyocytes | – | – | dose not given, 0.167 s | – | sarcomere length | 1.6 µm
CCCCCCCCCCCCCCCCCCOc1ccc(CC(=O)OCC[N+]2(C)CCOCC2)cc1 | NSCLC panel (nine cell lines) | – | – | 10 µM | – | mean growth inhibition | 3.79%
Cn1cnc2c(F)c(Nc3ccc(Br)cc3Cl)c(C(=O)NOCCO)cc21 | SNU-1040 | – | – | 0.33 µM, 72 h, 100% DMSO | relative to: vehicle | cell growth | 102%
C[C@H]1[C@@H](O)O[C@@H]2O[C@@]3(C)CC[C@H]4[C@H](C)CC[C@@H]1[C@@]24OO3 | KCL-22 | annexin V/PI flow cytometry, item: annexin V+/PI+ | – | 3.2 µM, 24 h | – | late apoptotic cells | 0.9%
CCn1cc(-c2cc(Cn3ccoc3=N)cc3c2CCN([C@@H](C)c2cc(OC)ccn2)C3=O)c(C(F)(F)F)n1 | 22Rv1 | cell growth, inhibitor | – | 120 h | – | EC50 | 0.063 µM
Nc1cccc2c1CN(C1CCC(=O)NC1=O)C2=O (stereo not shown) | bone marrow CD138+ myeloma cells | XTT | – | 1 µM, mean of three patients | – | viability | 80%
